# Measured values of several laboratories.
# Protocols differ between the studies behind these lines. Numbers after ± are the reported error.
Structure (SMILES),cell line,test,test system,conditions,scale,measurement,result
COC1C=COC2(C)Oc3c(C)c(O)c4c(c3C2=O)C2=NC3(CCN(CC(C)C)CC3)NC2=C(NC(=O)C(C)=CC=CC(C)C(O)C(C)C(O)C(C)C(OC(=O)Nc2cccnn2)C1C)C4=O (centres unmarked),THP-1 derived macrophages,,,,relative to: intracellular over extracellular,intracellular/extracellular ratio,23
Cc1ccccc1C(c1c[nH]c(=O)[nH]c1=O)c1c[nH]c(=O)[nH]c1=O,Ba/F3,,,1 µg/mL,,cytotoxicity,not toxic
CC/C(=C(\c1ccc(O)cc1)c1ccc(OCCN(C)CCOCCOCCOCCN(C)CCOc2ccc(/C(=C(/CC)c3ccccc3)c3ccc(O)cc3)cc2)cc1)c1ccccc1,U2OS transfected with ERβ,,,"10 µM, cytotoxicity",,cell density,55%
[99Tc+].[C-]#[N+]CC(C)(C)OC.[C-]#[N+]CC(C)(C)OC.[C-]#[N+]CC(C)(C)OC.[C-]#[N+]CC(C)(C)OC.[C-]#[N+]CC(C)(C)OC.[C-]#[N+]CC(C)(C)OC,"rat sandwich-cultured hepatocytes, non-target siRNA",,,"10 min, culture day 4",,in vitro biliary clearance,0.485 L/h/kg
CC(=O)[O-].F[P-](F)(F)(F)(F)F.[Cu+2].c1ccc(CN2CCN3CCN(CC2)CCN(Cc2ccccc2)CC3)cc1,THP-1,cytotoxicity,,,,IC90,> 20 µM
C/C=C/CNC(=N)NCCCCCCCCN1CCCc2cc(Cl)ccc2COc2ccccc2CNC(=N)NC1=O,normal human dermal fibroblasts,MTT,,24 h,,CC50,38.5 ± 2.18 mg/L
CC(=O)N[C@H](C(=O)N[C@H](C(=O)N[C@@H](CCCNC(=N)N)C(=O)N1Cc2ccccc2C[C@H]1C(=O)N[C@@H](Cc1ccccc1)C(N)=O)C1CCCCC1)C(C)C,human PBMC,"Bio-Plex multiplex, item: IL-5",,"250 µg/mL, 24 h",,cytokine level,< 0.2 pg/mL
CC/C(=C(\c1ccc(O)cc1)c1ccc(OCCN(C)CCOCCOCCOCCOCCOCCOCCOCCOCCOCCN(C)CCOc2ccc(/C(=C(/CC)c3ccccc3)c3ccc(O)cc3)cc2)cc1)c1ccccc1,U2OS transfected with ERβ,,,"10 µM, cytotoxicity",,cell density,8%
OC[C@H]1O[C@@H](n2cnc3c(O)ncnc32)[C@H](F)[C@@H]1O,iCell cardiomyocytes,sulforhodamine B,,"11 days, galactose medium",,CC50,> 250 µM
COC(=O)c1ccc(CN2CCC(Nc3nc(Oc4c(C)cc(C#N)cc4C)c4ccccc4n3)CC2)cc1,TZM-bl,"cell growth or viability, XTT",,,,CC50,> 0.24 µM
COc1cccc2c1C(=O)c1c(O)c3c(c(O)c1C2=O)CC(O)(C(=O)CO)CC3OC1CC(NC(=O)C[C@H](N)C(=O)O)C(O)C(C)O1 (some centres unmarked),MDCK-MDR1,,,"50 µg/mL, 60 min",relative to: B-A over A-B,efflux ratio,1.3 ± 0.11
C[C@H](CCC=O)[C@@H]1CC[C@]2(C)C3=C(CC[C@@]12C)[C@@]1(C)CC[C@H](O)C(C)(C)[C@@H]1CC3,U-251,"cell growth or viability, SRB",,50 µM,,inhibition,59.8%
CC(=O)[O-].F[P-](F)(F)(F)(F)F.[Co+2].c1ccc(CN2CCCNCCN(Cc3ccccc3)CCCNCC2)cc1,THP-1,cell growth or viability,,,,IC50,> 15 µM
O=c1c2sccc2n(CC2COc3ccccc3O2)c(=O)n1O (centres unmarked),SW-620,colony formation,,10 to 14 days,,EC50,11 µM
CC/C=C\C/C=C\C/C=C\C/C=C\C/C=C\C/C=C\CCC(=O)OC(CO)COP(=O)(O)OCC(N)C(=O)O (centres unmarked),human brain-like endothelial cell monolayer,LC-MS,in vitro BBB model,"10 µM, 180 min, pH 7.4",,Papp,859 ± 42.4 nm/s
Cc1cc(C#N)cc(C)c1Oc1nc(NC2CCN(Cc3ccc(S(C)(=O)=O)cc3)CC2)nc2ccccc12,TZM-bl,"cell growth or viability, XTT",,,,CC50,> 0.231 µM
CC(=O)OC[C@H]1O[C@@H](Sc2sc(C(=O)c3ccc(Br)cc3)c(N)c2-c2nc3ccccc3s2)[C@H](OC(C)=O)[C@@H](OC(C)=O)[C@H]1OC(C)=O,HEp-2,cytotoxicity,,72 h,,maximum non-toxic concentration,90 µg/mL
O=C(OCc1cccc(O)c1O)c1ccc(O)c(CO)c1,HL-60,,,"20 µM, 48 h",,cytotoxicity,not toxic
Nc1c(C(=O)c2ccc(Br)cc2)sc(S)c1-c1nc2ccccc2s1,HEp-2,cytotoxicity,,72 h,,maximum non-toxic concentration,100 µg/mL
Cc1cc2c(cc1C1(c3ncc(C(=O)O)cn3)CC1)C(C)(C)CCC2(C)C,TK6,"cytotoxicity, GreenScreen",,without S9,,lowest effective concentration,8.57 µg/mL
C[C@@H]1O[C@@H](O[C@H]2[C@H](O[C@H]3CC[C@@]4(C)C(CC[C@]5(C)C4CC=C4C6CC(C)(C)CC[C@]6(C(=O)O[C@@H]6O[C@H](CO)[C@@H](O)[C@H](O)[C@H]6O)CC[C@]45C)[C@]3(C)CO)OC[C@H](O)[C@@H]2O)[C@H](O)[C@H](O[C@@H]2OC[C@@H](O)[C@H](O)[C@H]2O)[C@H]1O (some centres unmarked),HepG2,"cell growth or viability, CCK-8",,"10 µM, 24 h",,viability,96.3%
CC(=O)OC[C@H]1O[C@@H](Sc2sc(C(=O)c3ccc(Cl)cc3)c(N)c2-c2nc3ccccc3s2)[C@H](OC(C)=O)[C@@H](OC(C)=O)[C@H]1OC(C)=O,HEp-2,cytotoxicity,,72 h,,maximum non-toxic concentration,90 µg/mL
COc1ccc(NC(=O)N2CCCN3CCC(c4ccc(C#Cc5ccccc5)cc4)C3C2)cc1 (centres unmarked),MDCK-MDR1,,Caco-2,,,Papp B→A,12.8 nm/s
O=c1c(-c2nc3ccccc3s2)cc2c(n1NS(=O)(=O)c1ccc(Cl)cc1)CCCCCC2,HEp-2,trypan blue,,72 h,,maximum non-toxic concentration,130 µg/mL
COc1ccc(S(=O)(=O)NCc2c[nH]nc2-c2cccs2)cc1,HCT-8,,,"10 µM, 24 h",,growth inhibition,~6%
COc1cc(O)cc(CCc2cc(Cl)ccc2O)c1,LS174T 5-FU-resistant,SRB,,"5 µM, 24 h pretreatment, with: 5-fluorouracil 72 h",,sensitization to 5-fluorouracil,3 fold
Cc1cc(C#N)cc(C)c1Oc1nc(NC2CCN(Cc3ccc(S(N)(=O)=O)cc3)CC2)nc2ncccc12,TZM-bl,"cell growth or viability, XTT",,,,CC50,52.1 µM
C=CC(=C)CC[C@]1(C)[C@H](C)CC[C@@]23C(=C[C@H](OC(=O)C(C)C)C[C@@H]12)[C@@H](OC(C)=O)O[C@H]3OC(C)=O,KB-VIN (P-gp-overexpressing),"cell growth, SRB",,,,IC50,26.6 µM
CC(=O)[O-].F[P-](F)(F)(F)(F)F.[Co+2].c1ccc(CN2CCCN3CCN(CCCN(Cc4ccccc4)CC3)CC2)cc1,THP-1,cytotoxicity,,,,IC90,> 15 µM
COC1CCC2(C)C3=C(CCC2C1(C)C)C1(C)CCC(C(C)CCC=C(C)C)C1(C)CC3 (centres unmarked),HCT-15,"cell growth or viability, SRB",,50 µM,,inhibition,4.3%
Cc1cc(C#N)cc(C)c1Oc1nc(NC2CCN(Cc3ccc(C#N)cc3)CC2)nc2ccccc12,TZM-bl,"cell growth or viability, XTT",,,,CC50,> 0.256 µM
OC[C@H]1O[C@@H](OCCCCCCCCCCC(F)(F)C(F)(F)C(F)(F)C(F)(F)C(F)(F)C(F)(F)F)[C@H](O)[C@@H](O)[C@H]1O,B16-F10,"cytotoxicity, MTT",,24 h,,EC50,> 250 µM
Cc1nn(-c2ccc(S(=O)(=O)N[C@@H](CO)CC(C)C)cc2)c2nn3nnnc3nc12,human peripheral blood lymphocytes,"DNA damage, alkaline comet",,"1 µM, 24 h",,tail DNA,13.1 ± 0.86%
Nc1ccn([C@@H]2O[C@H](CO)[C@@H](O)[C@H]2F)c(=O)n1,SNB-78,"cytotoxicity, sulforhodamine B",,11 days,relative to: glucose medium over galactose medium,CC50 ratio,2 to 10 fold
C=C(c1ncc(C(=O)O)cn1)c1cc2c(cc1C)C(C)(C)CCC2(C)C,TK6,"cytotoxicity, GreenScreen",,without S9,,lowest effective concentration,6.64 µg/mL
O=c1ccn([C@@H]2O[C@H](CO)[C@@H](O)[C@H]2F)c(=O)[nH]1,SNB-78,"cell growth or viability, SRB",,11 days,,CC50,> 250 µM
CNc1c(C)n(C)n(-c2ccccc2)c1=O,HepaRG differentiated,item: CYP2D6,,"300 µM, 72 h, with: 2 mM metformin",,mRNA level,no effect
CCCCn1cc(C(=O)O)c(=O)c2cc(F)c3[nH]nnc3c21,SW-620,"cell growth or viability, SRB",,,,IC50,73.7 µM

# Some of these lines once more:
Structure (SMILES),cell line,test,test system,conditions,scale,measurement,result
C/C=C/CNC(=N)NCCCCCCCCN1CCCc2cc(Cl)ccc2COc2ccccc2CNC(=N)NC1=O,normal human dermal fibroblasts,MTT,,24 h,,CC50,38.5 ± 2.18 mg/L
CC(=O)N[C@H](C(=O)N[C@H](C(=O)N[C@@H](CCCNC(=N)N)C(=O)N1Cc2ccccc2C[C@H]1C(=O)N[C@@H](Cc1ccccc1)C(N)=O)C1CCCCC1)C(C)C,human PBMC,"Bio-Plex multiplex, item: IL-5",,"250 µg/mL, 24 h",,cytokine level,< 0.2 pg/mL
CC/C(=C(\c1ccc(O)cc1)c1ccc(OCCN(C)CCOCCOCCOCCOCCOCCOCCOCCOCCOCCN(C)CCOc2ccc(/C(=C(/CC)c3ccccc3)c3ccc(O)cc3)cc2)cc1)c1ccccc1,U2OS transfected with ERβ,,,"10 µM, cytotoxicity",,cell density,8%
